Measured values pooled from the literature.
Protocols differ between the studies behind these lines. ± marks the error that the study gave. Values after ≈ are worked out from the molar mass of the structure shown.
Broad substrate specificity ATP-binding cassette transporter ABCG2: Broad substrate specificity ATP-binding cassette transporter ABCG2 (Mus musculus, UniProt Q7TMS5)
Sequence of UniProt Q7TMS5 (whole entry, looked up): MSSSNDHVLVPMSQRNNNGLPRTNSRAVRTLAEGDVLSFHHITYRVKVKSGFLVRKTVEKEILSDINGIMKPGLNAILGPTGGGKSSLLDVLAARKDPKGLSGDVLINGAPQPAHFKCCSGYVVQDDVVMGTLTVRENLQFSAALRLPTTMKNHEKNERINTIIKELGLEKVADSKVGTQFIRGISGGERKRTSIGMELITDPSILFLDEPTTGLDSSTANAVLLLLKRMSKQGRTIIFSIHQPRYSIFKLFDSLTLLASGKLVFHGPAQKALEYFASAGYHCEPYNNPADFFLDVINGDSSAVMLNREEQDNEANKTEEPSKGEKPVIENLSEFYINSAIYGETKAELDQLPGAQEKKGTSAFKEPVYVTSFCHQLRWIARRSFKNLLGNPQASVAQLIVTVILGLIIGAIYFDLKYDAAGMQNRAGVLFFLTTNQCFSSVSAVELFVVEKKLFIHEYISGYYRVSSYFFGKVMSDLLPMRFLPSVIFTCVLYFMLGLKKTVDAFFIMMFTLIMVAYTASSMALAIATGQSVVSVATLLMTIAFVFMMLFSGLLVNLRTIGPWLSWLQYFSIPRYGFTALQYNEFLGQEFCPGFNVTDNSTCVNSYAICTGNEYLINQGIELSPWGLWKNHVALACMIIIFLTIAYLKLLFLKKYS
NR1I2: Nuclear receptor subfamily 1 group I member 2 (NR1I2, Homo sapiens, UniProt O75469)
Sequence of UniProt O75469 (whole entry, looked up): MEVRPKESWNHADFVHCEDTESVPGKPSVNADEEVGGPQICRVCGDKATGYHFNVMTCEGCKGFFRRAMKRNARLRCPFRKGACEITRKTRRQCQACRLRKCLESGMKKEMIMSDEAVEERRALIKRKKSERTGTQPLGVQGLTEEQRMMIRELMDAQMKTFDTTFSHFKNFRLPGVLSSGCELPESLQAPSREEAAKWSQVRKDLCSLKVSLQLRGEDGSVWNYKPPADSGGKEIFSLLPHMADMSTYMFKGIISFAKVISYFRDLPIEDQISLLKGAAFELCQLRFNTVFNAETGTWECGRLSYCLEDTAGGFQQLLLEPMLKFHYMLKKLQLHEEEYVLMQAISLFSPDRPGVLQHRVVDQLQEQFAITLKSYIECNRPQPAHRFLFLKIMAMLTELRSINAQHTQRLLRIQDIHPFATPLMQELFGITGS
HCRTR1: Orexin/Hypocretin receptor type 1 (HCRTR1, Homo sapiens, UniProt O43613)
Sequence of UniProt O43613 (whole entry, looked up): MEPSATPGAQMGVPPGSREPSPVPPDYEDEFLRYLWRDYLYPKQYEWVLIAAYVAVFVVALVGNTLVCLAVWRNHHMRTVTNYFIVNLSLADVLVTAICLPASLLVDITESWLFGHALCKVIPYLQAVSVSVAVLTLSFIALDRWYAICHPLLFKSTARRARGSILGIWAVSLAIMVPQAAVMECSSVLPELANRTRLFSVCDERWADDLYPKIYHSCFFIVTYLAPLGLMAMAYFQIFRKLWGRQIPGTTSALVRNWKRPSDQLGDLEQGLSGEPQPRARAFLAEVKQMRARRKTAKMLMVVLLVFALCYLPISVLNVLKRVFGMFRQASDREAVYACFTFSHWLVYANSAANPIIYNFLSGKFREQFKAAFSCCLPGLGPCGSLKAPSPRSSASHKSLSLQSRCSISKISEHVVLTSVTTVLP
Sequence of UniProt P19971 (whole entry, looked up): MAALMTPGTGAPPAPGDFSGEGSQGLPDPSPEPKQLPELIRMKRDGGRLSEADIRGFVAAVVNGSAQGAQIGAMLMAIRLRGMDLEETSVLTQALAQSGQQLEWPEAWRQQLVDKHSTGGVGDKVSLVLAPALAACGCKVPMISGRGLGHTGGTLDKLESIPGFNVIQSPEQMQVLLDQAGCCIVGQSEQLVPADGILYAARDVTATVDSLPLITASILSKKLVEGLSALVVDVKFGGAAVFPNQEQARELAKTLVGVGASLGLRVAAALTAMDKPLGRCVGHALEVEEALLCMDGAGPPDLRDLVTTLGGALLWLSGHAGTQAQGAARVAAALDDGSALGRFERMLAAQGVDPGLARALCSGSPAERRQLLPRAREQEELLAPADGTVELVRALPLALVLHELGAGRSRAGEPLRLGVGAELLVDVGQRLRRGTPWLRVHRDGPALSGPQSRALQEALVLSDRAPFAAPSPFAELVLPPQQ
Sequence of UniProt P10632 (whole entry, looked up): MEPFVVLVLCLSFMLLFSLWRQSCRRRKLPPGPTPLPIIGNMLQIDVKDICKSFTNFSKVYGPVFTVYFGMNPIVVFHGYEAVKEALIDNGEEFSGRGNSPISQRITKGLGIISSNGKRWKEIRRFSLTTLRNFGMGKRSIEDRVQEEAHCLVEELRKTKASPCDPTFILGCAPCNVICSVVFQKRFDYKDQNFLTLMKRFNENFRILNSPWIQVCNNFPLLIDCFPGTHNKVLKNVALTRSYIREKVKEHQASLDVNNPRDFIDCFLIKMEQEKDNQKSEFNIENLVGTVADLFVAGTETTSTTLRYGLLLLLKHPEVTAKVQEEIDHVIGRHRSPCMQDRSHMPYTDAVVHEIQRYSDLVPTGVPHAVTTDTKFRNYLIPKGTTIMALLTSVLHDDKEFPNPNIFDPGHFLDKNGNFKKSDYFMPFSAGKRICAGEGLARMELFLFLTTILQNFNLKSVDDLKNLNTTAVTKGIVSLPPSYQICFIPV
Sequence of UniProt P08682 (whole entry, looked up): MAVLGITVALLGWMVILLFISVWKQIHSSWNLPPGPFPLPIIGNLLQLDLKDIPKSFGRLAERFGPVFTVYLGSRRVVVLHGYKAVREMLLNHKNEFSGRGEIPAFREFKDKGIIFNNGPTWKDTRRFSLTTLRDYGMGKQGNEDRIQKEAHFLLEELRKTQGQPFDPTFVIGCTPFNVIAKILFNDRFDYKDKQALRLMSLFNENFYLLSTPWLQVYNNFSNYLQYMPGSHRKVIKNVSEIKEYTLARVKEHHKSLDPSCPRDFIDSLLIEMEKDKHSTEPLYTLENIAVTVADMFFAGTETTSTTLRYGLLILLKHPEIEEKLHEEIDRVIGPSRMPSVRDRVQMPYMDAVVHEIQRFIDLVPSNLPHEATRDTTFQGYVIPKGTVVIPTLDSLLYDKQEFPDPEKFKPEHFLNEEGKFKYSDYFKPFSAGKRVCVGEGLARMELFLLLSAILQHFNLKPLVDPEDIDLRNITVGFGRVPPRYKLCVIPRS
Sequence of UniProt P11509 (whole entry, looked up): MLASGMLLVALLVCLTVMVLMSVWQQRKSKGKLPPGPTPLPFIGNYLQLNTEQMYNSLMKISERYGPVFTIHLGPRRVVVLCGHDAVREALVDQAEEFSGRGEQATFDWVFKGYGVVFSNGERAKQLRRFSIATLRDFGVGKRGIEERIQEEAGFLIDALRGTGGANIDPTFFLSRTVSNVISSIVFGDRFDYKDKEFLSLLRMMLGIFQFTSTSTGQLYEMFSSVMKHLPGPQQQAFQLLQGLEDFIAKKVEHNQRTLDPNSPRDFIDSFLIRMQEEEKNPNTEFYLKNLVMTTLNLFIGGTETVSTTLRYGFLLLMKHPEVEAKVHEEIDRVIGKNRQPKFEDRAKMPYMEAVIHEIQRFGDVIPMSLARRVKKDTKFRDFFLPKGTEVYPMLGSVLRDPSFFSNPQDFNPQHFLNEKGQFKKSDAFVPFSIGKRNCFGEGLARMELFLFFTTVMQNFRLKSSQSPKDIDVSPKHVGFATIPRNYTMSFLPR
Sequence of UniProt P20813 (whole entry, looked up): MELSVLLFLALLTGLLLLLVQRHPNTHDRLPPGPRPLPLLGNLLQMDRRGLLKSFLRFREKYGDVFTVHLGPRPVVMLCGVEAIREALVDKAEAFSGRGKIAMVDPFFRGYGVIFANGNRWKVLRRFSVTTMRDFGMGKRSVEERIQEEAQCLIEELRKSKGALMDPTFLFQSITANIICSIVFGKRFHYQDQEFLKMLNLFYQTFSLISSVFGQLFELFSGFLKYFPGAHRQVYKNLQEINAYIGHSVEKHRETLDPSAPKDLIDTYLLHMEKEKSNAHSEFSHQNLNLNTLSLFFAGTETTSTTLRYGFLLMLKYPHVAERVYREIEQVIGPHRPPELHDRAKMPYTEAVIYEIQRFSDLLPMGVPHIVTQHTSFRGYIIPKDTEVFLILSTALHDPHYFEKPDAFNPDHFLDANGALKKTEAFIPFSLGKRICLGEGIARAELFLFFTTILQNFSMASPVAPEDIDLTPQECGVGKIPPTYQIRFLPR

Substance	tested on	assay	system	setting	scale	quantity	result
c1cnc2c(c1)ccc1cccnc12		subfragment degradation	chloroplast extract			inhibitory concentration	1 mM
CC/C=C\C/C=C\C/C=C\C/C=C\C/C=C\C/C=C\CCC(=O)O	UGT1A1 (human)	item: bilirubin	hUGT1 mouse	10 mg/kg, 0.5 mg/mL	relative to: with over without inhibitor	intrinsic clearance ratio	0.0034
Cn1cc(S(=O)(=O)N2CCC3=Cc4c(cnn4-c4ccc(F)cc4)C[C@]3(C(=O)c3cc(C(F)(F)F)ccn3)C2)cn1	Cytochrome P450 2C8 (CYP2C8, Homo sapiens, UniProt P10632)		healthy human subjects	oral, 350 mg once daily, added: pioglitazone probe substrate		CYP2C8 inhibition	no inhibition
Cc1ccc(Nc2nccc(N(C)c3ccc4c(C)n(C)nc4c3)n2)cc1S(N)(=O)=O	Broad substrate specificity ATP-binding cassette transporter ABCG2	bidirectional transport	MDCK-Bcrp1 (murine Bcrp1)	5 µM, 240 min, added: erlotinib		Papp B-A	4.97 ± 0.15 ×10⁻⁶ cm/s
c1n[nH]c2c1CCCC2	CYP2E1 (Oryctolagus cuniculus, UniProt P08682)	inhibitor		pH 7.4, 37 °C, catalytic site, added: 4-nitrophenol		Ki	1 µM
CN1CCN2c3ccccc3Cc3ccccc3C2C1 (stereo not drawn)	alpha-1-acid glycoprotein (human)	isothermal titration calorimetry		pH 7.4, 30 °C, heterogeneous AGP preparation		Kd	219 µM
CC1=N[C@]2(C(=O)CO)[C@@H](C[C@H]3[C@@H]4C[C@@H](O)C5=CC(=O)C=C[C@]5(C)[C@H]4[C@@H](O)C[C@@]32C)O1	Cytochrome P450 2B6 (CYP2B6, Homo sapiens, UniProt P20813)	enzyme activity, inhibitor	human, liver microsomes	with preincubation		IC50	> 50 µM
CO[C@H]1/C=C/O[C@@]2(C)Oc3c(C)c(O)c4c(O)c(c(/C=N/N5CCN(C)CC5)c(O)c4c3C2=O)NC(=O)/C(C)=C\C=C\[C@H](C)[C@H](O)[C@@H](C)[C@@H](O)[C@@H](C)[C@H](OC(C)=O)[C@@H]1C	NR1I2	reporter gene, agonist, luciferase	HepG2	2.5 µM, 24 h		induction	2.62
O=C(O)c1cc(/N=N/c2ccc(S(=O)(=O)Nc3ccccn3)cc2)ccc1O	Broad substrate specificity ATP-binding cassette transporter ABCG2		FVB mouse, plasma	oral, 20 mg/kg		Tmax	30 min
O=C(C=C(O)c1cc(Cc2c(F)cccc2F)cn(Cc2ccccc2F)c1=O)C(=O)NN1CCCC1=O	human UGT1A1, 1A6, 1A9, 2B7	competitive inhibitor	human liver microsomes	15 min, pH 7.4, added: 4-methylumbelliferone 200 µM		IC50	> 300 µM
O=c1[nH]c(=O)n([C@H]2C[C@H](O)[C@@H](CO)O2)cc1F	Thymidine phosphorylase (Homo sapiens, UniProt P19971)	substrate		200 µM, pH 7.0, 37 °C, added: enzyme 2.0 ng/µL		half-life	6 ± 3 min
CCCC[C@H](NC(C)=O)C(=O)N[C@H]1CCC(=O)NC[C@@H](C(=O)N[C@@H](Cc2c[nH]c3ccccc23)C(N)=O)NC(=O)[C@H](CCCNC(=N)N)NC(=O)[C@@H](Cc2ccccc2)NC(=O)[C@H](Cc2c[nH]cn2)NC1=O			healthy volunteers, both sexes, plasma	subcutaneous, 1.0 mg once daily, day 1		Cmax, geometric mean	21.7 ng/mL
COc1ccc(CC2c3cc(OC)c(OC)cc3CCN2CC(=O)NCc2ccccc2)cc1NCc1ccccc1 (stereo not drawn)	HCRTR1	calcium signal, antagonist, fluorescence				Kb	> 10 µM
ivermectin	P-glycoprotein 11.1 (Toxocara canis, UniProt A0A891XKB7)	transport, inhibitor	LLC-PK1 transfected with P-glycoprotein 11.1	added: Hoechst 33342		IC50	322 µM
CCOC(=O)c1c(N)csc1-c1cn(-c2ccccc2)nc1-c1ccc(C)cc1	Acinetobacter baumannii	microbial growth, broth dilution				MIC	0.24 µg/mL (≈ 0.595 µM)
O=C(/C=C/C=C/c1ccc2c(c1)OCO2)N1CCCCC1	NR1I2	MDR1 promoter reporter, activator, luciferase reporter	LS180, no PXR transfection	24 h, 1% charcoal-stripped FBS		EC50	2.07 µM
CN(C)CC/C=C1\c2ccccc2CSc2ccccc21	alpha-1-acid glycoprotein (human)	isothermal titration calorimetry		pH 7.4, 30 °C, heterogeneous AGP preparation		Kd	84.7 µM
CC(=O)N[C@@H](CC(C)C)C(=O)N[C@H](C=O)Cc1ccccc1	Chymotrypsinogen A (Bos taurus, UniProt P00766)	13C NMR titration, item: hemiacetal oxyanion				pKa	< 6
CC(C)[C@H](NC(=O)[C@@H]1CCCN1C(=O)[C@H](CCCNC(=N)N)NC(=O)[C@H](CS)NC(=O)[C@H](Cc1c[nH]c2ccccc12)NC(=O)[C@H](CCCNC(=N)N)NC(=O)[C@@H](Cc1ccccc1)NC(=O)[C@H](Cc1c[nH]cn1)NC(=O)[C@H](CCC(=O)O)NC(=O)[C@H](CS)NC(=O)[C@H](CS)NC(=O)[C@H](CCCCN)NC(=O)[C@@H]1CC(=O)N[C@@H](CCCNC(=N)N)C(=O)N[C@@H](C)C(=O)N[C@@H](CC(=O)O)C(=O)N[C@H](Cc2ccc(O)cc2)C(=O)N1)C(N)=O [technetium-99m labelled]			C57 mice, brain	intravenous, 0.037 MBq, 0.5 h		tissue uptake	0.14 ± 0.03 %ID/g
Cc1coc2c1CC[C@@H](C)C2	Cytochrome P450 2A6 (CYP2A6, Homo sapiens, UniProt P11509)	enzyme activity, inhibitor		pH 7.4		KI (inactivation)	2.2 µM
O=c1ccc2ccccc2o1	CYP2A6 human	7-hydroxylation, substrate	human liver microsomes	CYP2A6 added 216 pmol/mg, ratio 0.5		Km	1.48 ± 0.23 µM
COc1cc2c(cc1OC)C(Cc1ccc(OC)c([N+](=O)[O-])c1)N(CC(=O)NCc1ccccc1)CC2 (stereo not drawn)	HCRTR1	calcium signal, antagonist, fluorescence				Kb	1.5 µM
CCCCC/C=C\C/C=C\C/C=C\C/C=C\CCCC(=O)O	cytochrome P450 enzymes	M1 formation, inhibitor	pooled human intestinal microsomes	100 µM, 5 min, pH 7.4, substrate named only as label, added: 3 µM substrate		inhibition	40%
CC[C@H](C)[C@H](NC(=O)[C@H](CCC(=O)O)NC(=O)[C@H](CO)NC(=O)[C@@H](NC(=O)[C@@H](N)CO)C(C)C)C(=O)N[C@@H](CCC(N)=O)C(=O)N[C@@H](CC(C)C)C(=O)N[C@@H](CCSC)C(=O)N[C@@H](Cc1cnc[nH]1)C(=O)N[C@@H](CC(N)=O)C(=O)N[C@@H](CC(C)C)C(=O)NCC(=O)N[C@@H](CCCCN)C(=O)N[C@@H](Cc1cnc[nH]1)C(=O)N[C@@H](CC(C)C)C(=O)N[C@@H](CC(N)=O)C(=O)N[C@@H](CO)C(=O)N[C@@H](CCSC)C(=O)N[C@@H](CCC(=O)O)C(=O)N[C@@H](CCCN=C(N)N)C(=O)N[C@H](C(=O)N[C@@H](CCC(=O)O)C(=O)N[C@@H](Cc1c[nH]c2ccccc12)C(=O)N[C@@H](CC(C)C)C(=O)N[C@@H](CCCN=C(N)N)C(=O)N[C@@H](CCCCN)C(=O)N[C@@H](CCCCN)C(=O)N[C@@H](CC(C)C)C(=O)N[C@@H](CCC(N)=O)C(=O)N[C@@H](CC(=O)O)C(=O)N[C@H](C(=O)N[C@@H](Cc1cnc[nH]1)C(=O)N[C@@H](CC(N)=O)C(=O)N[C@@H](Cc1ccccc1)C(=O)O)C(C)C)C(C)C	Chymotrypsinogen A, activated (chymotrypsin) (Bos taurus, UniProt P00766)	substrate, HPLC-UV		5 min, pH 6.5, 37 °C, without trypsin inhibitor		remaining intact compound	0%
